Measurements pooled from the literature.
Each line is one published result; not all experiments were run side by side. Values joined by “and” are separate records of one study, mostly repeats; a detail may differ. Numbers after ± are the reported error.

| Compound | target or system | test | test system | setting | endpoint | result |
| --- | --- | --- | --- | --- | --- | --- |
| CO/N=C(\C(=O)N[C@@H]1C(=O)N2C(C(=O)O)=C(CSc3nc(=O)c(=O)[nH]n3C)CS[C@H]12)c1csc(N)n1 | PBP1b Streptococcus pneumoniae | Bocillin-FL competition | live Streptococcus pneumoniae cells | 30 min, added: Bocillin-FL 600 nM | kinact/KI | 9200 ± 3200 M⁻¹ s⁻¹ |
| COc1ccc(N2C(=O)N(c3c(C)cccc3Cl)Cc3cnc(Nc4ccc(C5CCN(C)CC5)cc4OC)nc32)nc1 | PKC-beta2, human | kinase activity |  | 0.5 µM | inhibition | -0.85% |
| N=C(N)NC(=N)Nc1cccc(Cl)c1 | Plasmodium falciparum |  | 3D7 |  | IC50 | 10 µM |
| O=C(Nc1cccnn1)N1CCN([C@@H]2CCOc3cc(C(F)(F)F)ccc32)CC1 | TNF-alpha (human) | binding |  | 20 µM | inhibition | 6% |
| Cc1cc(F)cc2c(CCC(=O)N[C@@H]3C(=O)NC[C@H]3O)c(-c3ccc(F)cc3)[nH]c12 | GABAA central benzodiazepine site | binding |  | 10 µM, added: flunitrazepam | inhibition | -6% |
| CC1(C)S[C@@H]2[C@H](/N=C/N3CCCCCC3)C(=O)N2[C@H]1C(=O)O | PBP1b Streptococcus pneumoniae | Bocillin-FL competition | live Streptococcus pneumoniae cells | 30 min, added: Bocillin-FL 600 nM | kinact/KI | 56 ± 18 M⁻¹ s⁻¹ |
| O=[N+]([O-])O | sulfate/chloride exchanger, human | sulfate influx, inhibitor | neutrophils | external site, added: 2 µM nigericin, 85 mM K+ | Ki | 21100 µM and 21200 µM |
| Oc1cccc(N2C[C@H]3CC[C@@H](C2)N3CCCc2ccccc2)c1 | mu opioid receptor (human) | β-arrestin-2 recruitment |  |  | Emax | 18.5 ± 0.4% |
| CC1=C(C(=O)O)N2C(=O)[C@@H](NC(=O)[C@H](N)c3ccccc3)[C@H]2SC1 | PBP3 Streptococcus pneumoniae | Bocillin-FL competition | live Streptococcus pneumoniae cells | 30 min, added: Bocillin-FL 600 nM | kinact/KI | 3700 ± 980 M⁻¹ s⁻¹ |
| Oc1cccc(N2[C@@H]3CC[C@H]2CN(Cc2ccccc2)C3)c1 | mu opioid receptor (human) | β-arrestin-2 recruitment |  |  | Emax | 0% |
| N[C@@H]1C[C@H]1c1ccccc1 (racemic) | H+/organic cation antiporter | cell uptake | hCMEC/D3 |  | Km | 75.4 µM |
| c1ccc(C(NCCNC(c2ccccc2)c2ccccc2)c2ccccc2)cc1 | CXCR1/CXCR2 (human) | IL-8 binding |  | 10 µM | inhibition | 1% |
| Oc1cccc(N2[C@@H]3CC[C@H]2CN(CCCc2ccccc2)C3)c1 | mu opioid receptor (human) | β-arrestin-2 recruitment |  |  | Emax | 0% |
| Cc1onc(-c2c(Cl)cccc2Cl)c1C(=O)N[C@@H]1C(=O)N2[C@@H]1SC(C)(C)[C@@H]2C(=O)O | PBP1b Streptococcus pneumoniae | Bocillin-FL competition | live Streptococcus pneumoniae cells | 30 min, added: Bocillin-FL 600 nM | kinact/KI | 2800 ± 780 M⁻¹ s⁻¹ |
| NC(=NCc1ccccc1)NC(=O)c1nc(Cl)c(N)nc1N | Plasmodium falciparum |  | 3D7 |  | IC50 | 0.501 µM |
| CC1(C)S[C@@H]2[C@H](NC(=O)[C@H](N)c3ccccc3)C(=O)N2[C@H]1C(=O)O | PBP3 Streptococcus pneumoniae | Bocillin-FL competition | live Streptococcus pneumoniae cells | 30 min, added: Bocillin-FL 600 nM | kinact/KI | 77000 ± 14000 M⁻¹ s⁻¹ |
| Oc1cccc(CN2[C@@H]3CC[C@H]2CN(CCCc2ccccc2)C3)c1 | mu opioid receptor (human) | β-arrestin-2 recruitment |  |  | Emax | 0% |
| CC(=O)Nc1ccc(C=Cc2ccc(N=C=S)cc2S(=O)(=O)O)c(S(=O)(=O)O)c1 | sulfate/chloride exchanger, human | sulfate influx, inhibitor | neutrophils | added: 2 µM nigericin, 85 mM K+ | Ki | 56 µM |
| CO/N=C(\C(=O)N[C@@H]1C(=O)N2C(C(=O)O)=C(COC(C)=O)CS[C@H]12)c1csc(N)n1 | PBP3 Streptococcus pneumoniae | Bocillin-FL competition | live Streptococcus pneumoniae cells | 30 min, added: Bocillin-FL 600 nM | kinact/KI | 1.4e+06 ± 460000 M⁻¹ s⁻¹ |
| c1ccc(CCCN2C[C@H]3CC[C@@H](C2)N3c2ccccc2)cc1 | mu opioid receptor (human) | β-arrestin-2 recruitment |  |  | EC50 | > 50 µM |
| COc1cccc(OC)c1C(=O)N[C@@H]1C(=O)N2[C@@H]1SC(C)(C)[C@@H]2C(=O)O | PBP1b Streptococcus pneumoniae | Bocillin-FL competition | live Streptococcus pneumoniae cells | 30 min, added: Bocillin-FL 600 nM | kinact/KI | 650 ± 430 M⁻¹ s⁻¹ |
| CC(C)(C)c1ccc(OP(=O)(Oc2ccc(C(C)(C)C)cc2)Oc2ccc(C(C)(C)C)cc2)cc1 | mouse carboxylesterase |  | mouse, liver | dose not given, added: MUA substrate | carboxylesterase activity | no inhibition |
| O=[Se](=O)(O)O | sulfate/chloride exchanger, human | sulfate influx, inhibitor | neutrophils | external site, added: 2 µM nigericin, 85 mM K+ | Ki | 70900 µM |
| O=C1CCOc2ccccc21 | Aedes aegypti OR6 with Orco | agonist, two-electrode voltage clamp | Xenopus oocytes |  | EC50 | 6.84 µM |
| COc1cc(Nc2ncc(F)c(Nc3ccc4c(n3)NC(=O)C(C)(C)O4)n2)cc(OC)c1OC | sodium channel site 2 |  |  |  | IC50 | > 10 µM |
| CN1C[C@H]2CC[C@@H](C1)N2c1cccc(O)c1 | mu opioid receptor (human) | β-arrestin-2 recruitment |  |  | Emax | 0% |
| CC1(C)S[C@@H]2[C@H](NC(=O)Cc3ccccc3)C(=O)N2[C@H]1C(=O)O | PBP3 Streptococcus pneumoniae | Bocillin-FL competition | live Streptococcus pneumoniae cells | 30 min, added: Bocillin-FL 600 nM | kinact/KI | 180000 ± 55000 M⁻¹ s⁻¹ |
| C[C@H](C(=O)N[C@H]1COc2ccccc2[C@@H]1S(C)(=O)=O)c1ccc(F)cc1 | adrenergic alpha1 receptor, rat | binding |  | 10 µM, Eurofins selectivity panel | inhibition | -10% |
